Assay results from different studies.
Each line is one published result; not all experiments were run side by side. ± marks the error that the study gave.

| Structure (SMILES) | test | test system | setting | scale | measurement | result |
| --- | --- | --- | --- | --- | --- | --- |
| N=C(N)NCCC[C@@H]1NC(=O)[C@H](CCCCNC(=O)CNC(=O)CNC(=O)CNC(=O)CC[C@H](NC(=O)CCOCCOCCOCCOCCNC(=O)CC[C@H](NC(=O)CN2CCN(CC(=O)O)CCN(CC(=O)O)CCN(CC(=O)O)CC2)C(=O)NCCOCCOCCOCCOCCC(=O)N[C@@H](CCC(=O)NCC(=O)NCC(=O)NCC(=O)NCCCC[C@@H]2NC(=O)[C@@H](Cc3ccccc3)NC(=O)[C@H](CC(=O)O)NC(=O)CNC(=O)[C@H](CCCNC(=N)N)NC2=O)C(=O)NCC(=O)NCC(=O)NCC(=O)NCCCC[C@@H]2NC(=O)[C@@H](Cc3ccccc3)NC(=O)[C@H](CC(=O)O)NC(=O)CNC(=O)[C@H](CCCNC(=N)N)NC2=O)C(=O)NCC(=O)NCC(=O)NCC(=O)NCCCC[C@@H]2NC(=O)[C@@H](Cc3ccccc3)NC(=O)[C@H](CC(=O)O)NC(=O)CNC(=O)[C@H](CCCNC(=N)N)NC2=O)NC(=O)[C@@H](Cc2ccccc2)NC(=O)[C@H](CC(=O)O)NC(=O)CNC1=O [indium-111 labelled] |  | female athymic nude mice, lungs | intravenous, 3 µCi, 24 h, U-87 MG glioma xenograft |  | tissue uptake | 1.04 ± 0.04 %ID/g |
| CCCC[C@H](NC(=O)CNC(=O)CNC(=O)c1ccc(NN)nc1)C(=O)N[C@H]1CC(=O)NCCCC[C@@H](C(N)=O)NC(=O)[C@H](Cc2c[nH]c3ccccc23)NC(=O)[C@H](CCCNC(=N)N)NC(=O)[C@@H](Cc2ccccc2)NC(=O)[C@H](Cc2c[nH]cn2)NC1=O [technetium-99m labelled] |  | C57 mouse, B16/F1 melanoma | 2 h, together with: L-lysine | reference: tumour over kidney | uptake ratio | 3.23 |
| N=C(N)NCCC[C@@H]1NC(=O)[C@H](CCCCNC(=O)CCOCCOCCOCCOCCNC(=O)CC[C@H](NC(=O)CCOCCOCCOCCOCCNC(=O)c2ccc(NN)nc2)C(=O)NCCOCCOCCOCCOCCC(=O)NCCCC[C@@H]2NC(=O)[C@@H](Cc3ccccc3)NC(=O)[C@H](CC(=O)O)NC(=O)CNC(=O)[C@H](CCCNC(=N)N)NC2=O)NC(=O)[C@@H](Cc2ccccc2)NC(=O)[C@H](CC(=O)O)NC(=O)CNC1=O [technetium-99m labelled] |  | female athymic nude mice, U-87 MG glioma xenograft, tumour and muscle | intravenous, 2.5 µCi, 60 min | reference: tumour over muscle | tissue-to-tissue ratio | 13.7 ± 2.21 |
| CSCC[C@H](NC(=O)[C@H](CC(C)C)NC(=O)[C@H](Cc1c[nH]cn1)NC(=O)CNC(=O)[C@@H](NC(=O)[C@H](C)NC(=O)[C@H](Cc1c[nH]c2ccccc12)NC(=O)[C@H](CCC(N)=O)NC(=O)CCCCCNC(=O)CNC(=O)CNC(=O)CNC(=O)CSC(C)=O)C(C)C)C(N)=O [technetium-99m labelled] |  | healthy Swiss mouse, stomach, contents removed | intravenous, 18.5 MBq, 90 min |  | tissue uptake | 0.83 ± 0.32 %ID/g |
| CCCC[C@H](NC(=O)CNC(=O)[C@H](CO)NC(=O)CNC(=O)c1ccc(NN)nc1)C(=O)N[C@H]1CC(=O)NCCCC[C@@H](C(N)=O)NC(=O)[C@H](Cc2c[nH]c3ccccc23)NC(=O)[C@H](CCCNC(=N)N)NC(=O)[C@@H](Cc2ccccc2)NC(=O)[C@H](Cc2c[nH]cn2)NC1=O [technetium-99m labelled] |  | C57 mouse, B16/F1 melanoma | 2 h | reference: tumour over liver | uptake ratio | 32.3 |
| CC(C)C[C@H](NC(=O)[C@@H]1CCCN1C(=O)[C@H](CCCCN)NC(=O)[C@@H](N)CO)C(=O)N1CCC[C@H]1C(=O)N[C@@H](CCC(=O)O)C(=O)N[C@H](C(=O)N[C@H](C(=O)N[C@@H](CC(=O)O)C(=O)N[C@@H](CCC(=O)O)C(=O)N[C@@H](Cc1ccc(O)cc1)C(=O)N[C@@H](Cc1cn(CCOCCOCCOCCNC(=O)CCc2ccc(O)c(CN(CCN(CC(=O)O)Cc3cc(CCC(=O)NCCCC[C@H](NC(=O)N[C@@H](CCC(=O)O)C(=O)O)C(=O)O)ccc3O)CC(=O)O)c2)nn1)C(=O)O)[C@@H](C)O)C(C)C [gallium-68 labelled] |  | NMRI nu/nu mouse, LNCaP xenograft, brown adipose tissue | 10 MBq, high molar activity |  | SUV | 0.12 g/g |
| N=C(N)NCCC[C@@H]1NC(=O)[C@H](CCCCNC(=O)CCOCCOCCOCCOCCNC(=O)CN2CCN(CC(=O)O)CCN(CC(=O)O)CCN(CC(=O)O)CC2)NC(=O)[C@@H](Cc2ccccc2)NC(=O)[C@H](CC(=O)O)NC(=O)CNC1=O [indium-111 labelled] |  | female athymic nude mice, eyes | intravenous, 3 µCi, 72 h, U-87 MG glioma xenograft |  | tissue uptake | 0.1 ± 0.01 %ID/g |
| C[C@H](NC(=O)[C@H](CCCNC(=N)N)NC(=O)[C@H](CCCNC(=N)N)NC(=O)CNC(=O)[C@H](Cc1ccc(O)cc1)NC(=O)CCCN)C(=O)N[C@@H](CCCNC(=N)N)C(=O)N[C@@H](CCCNC(=N)N)C(=O)N[C@@H](CCCNC(=N)N)C(=O)N[C@@H](CCCNC(=N)N)C(=O)N[C@@H](CCCNC(=N)N)C(=O)N[C@@H](CCCNC(=N)N)C(=O)O | LC-MS | Kunming mouse, male, brain | intravenous, 10 mg/kg, 1 h, together with: GABA 50 mg/kg |  | GABA concentration | 446 ± 44 µg/g |
| N=C(N)NCCC[C@@H]1NC(=O)[C@H](CCCCNC(=O)CCOCCOCCOCCOCCNC(=O)CC[C@H](NC(=O)CCOCCOCCOCCOCCNC(=O)CC[C@H](NC(=O)CN2CCN(CC(=O)O)CCN(CC(=O)O)CCN(CC(=O)O)CC2)C(=O)NCCOCCOCCOCCOCCC(=O)N[C@@H](CCC(=O)NCCOCCOCCOCCOCCC(=O)NCCCC[C@@H]2NC(=O)[C@@H](Cc3ccccc3)NC(=O)[C@H](CC(=O)O)NC(=O)CNC(=O)[C@H](CCCNC(=N)N)NC2=O)C(=O)NCCOCCOCCOCCOCCC(=O)NCCCC[C@@H]2NC(=O)[C@@H](Cc3ccccc3)NC(=O)[C@H](CC(=O)O)NC(=O)CNC(=O)[C@H](CCCNC(=N)N)NC2=O)C(=O)NCCOCCOCCOCCOCCC(=O)NCCCC[C@@H]2NC(=O)[C@@H](Cc3ccccc3)NC(=O)[C@H](CC(=O)O)NC(=O)CNC(=O)[C@H](CCCNC(=N)N)NC2=O)NC(=O)[C@@H](Cc2ccccc2)NC(=O)[C@H](CC(=O)O)NC(=O)CNC1=O [indium-111 labelled] |  | female athymic nude mice, blood | intravenous, 3 µCi, 4 h, U-87 MG glioma xenograft |  | tissue uptake | 0.2 ± 0.02 %ID/g |
| N=C(N)NCCC[C@@H]1NC(=O)[C@H](CCCCNC(=O)CC[C@H](NC(=S)Nc2ccc(C[C@H]3CN(CC(=O)O)CCN(CC(=O)O)CCN3CC(=O)O)cc2)C(=O)NCCCC[C@@H]2NC(=O)[C@@H](Cc3ccccc3)NC(=O)[C@H](CC(=O)O)NC(=O)CNC(=O)[C@H](CCCNC(=N)N)NC2=O)NC(=O)[C@@H](Cc2ccccc2)NC(=O)[C@H](CC(=O)O)NC(=O)CNC1=O | HPLC and LC-MS | acetate buffer | pH 4, heating, radiolabeling conditions |  | stability | unstable |

A few entries again:
| Structure (SMILES) | test | test system | setting | scale | measurement | result |
| --- | --- | --- | --- | --- | --- | --- |
| CCCC[C@H](NC(=O)CNC(=O)CNC(=O)c1ccc(NN)nc1)C(=O)N[C@H]1CC(=O)NCCCC[C@@H](C(N)=O)NC(=O)[C@H](Cc2c[nH]c3ccccc23)NC(=O)[C@H](CCCNC(=N)N)NC(=O)[C@@H](Cc2ccccc2)NC(=O)[C@H](Cc2c[nH]cn2)NC1=O [technetium-99m labelled] |  | C57 mouse, B16/F1 melanoma | 2 h, together with: L-lysine | reference: tumour over kidney | uptake ratio | 3.23 |
